Measurements gathered from unrelated publications.
Protocols differ between the studies behind these lines. ± marks the error that the study gave.
U2AF2: U2AF2 148-342 (Homo sapiens, UniProt P26368)
Sequence of UniProt P26368 (whole entry, looked up): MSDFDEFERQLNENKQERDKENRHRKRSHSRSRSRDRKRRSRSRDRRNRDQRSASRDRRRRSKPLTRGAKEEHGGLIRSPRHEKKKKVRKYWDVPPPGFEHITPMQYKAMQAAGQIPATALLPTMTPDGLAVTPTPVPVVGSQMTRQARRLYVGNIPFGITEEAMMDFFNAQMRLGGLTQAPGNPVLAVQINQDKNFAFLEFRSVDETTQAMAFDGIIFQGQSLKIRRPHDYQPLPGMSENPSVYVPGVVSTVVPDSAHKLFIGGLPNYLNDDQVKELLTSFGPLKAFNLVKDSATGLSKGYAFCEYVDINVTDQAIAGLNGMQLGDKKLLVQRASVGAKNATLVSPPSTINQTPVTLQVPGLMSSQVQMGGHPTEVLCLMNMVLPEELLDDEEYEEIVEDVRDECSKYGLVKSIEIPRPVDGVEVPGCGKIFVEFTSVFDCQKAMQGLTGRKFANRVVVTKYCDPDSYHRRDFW
B1: human Nup88; sequence looked up; chain AAAEGPVGDGELWQTWLPNHVVFLRLREGLKNQSPTEAEKPASSSLPSSPPPQLLTRNVVFGLGGELFLWDGEDSSFLVVRLRGPSGGGEEPALSQYQRLLCINPPLFEIYQVLLSPTQHHVALIGIKGLMVLELPKRWGKNSEFEGGKSTVNCSTTPVAERFFTSSTSLTLKHAAWYPSEILDPHVVLLTSDNVIRIYSLREPQTPTNVIILSEAEEESLVLNKGRAYTASLGETAVAFDFGPLAAVPKTLFGQNGKDEVVAYPLYILYENGETFLTYISLLHSPGNIGKLLGPLPMHPAAEDNYGYDACAVLCLPCVPNILVIATESGMLYHCVVLEGEEEDDHTSEKSWDSRIDLIPSLYVFECVELELALKLASGEDDPFDSDFSCPVKLHRDPKCPSRYHCTHEAGVHSVGLTWIHKLHKFLGSDEEDKDSLQELSTEQKCFVEHILCTKPLPCRQPAPIRGFWIVPDILGPTMICITSTYECLIWPLLSTVHPASPPLLCTREDVEVAESPLRVLAETPDSFEKHIRSILQRSVANPAFLKASEKDIAPPPEECLQLLSRATQVFREQYILKQDLAKEEIQRRVKLLCDQKKKQLEDLSYCREERKSLREMAERLADKYEEAKEKQEDIMNRMKKLLHSFHSELPVLSDSERDMKKELQLIPDQLRHLGNAIKQVTMKKDYQQQKMEKVLSLPKPTIILSAYQRKCIQSILKEEGEHIREMVKQINDIRNHVNF
B2: human AHCYL1; sequence looked up; chain SMPDAMPLPGVGEELKQAKEIEDAEKYSFMATVTKAPKKQIQFADDMQEFTKFPTKTGRRSLSRSISQSSTDSYSSAASYTDSSDDEVSPREKQQTNSKGSSNFCVKNIKQAEFGRREIEIAEQDMSALISLRKRAQGEKPLAGAKIVGCTHITAQTAVLIETLCALGAQCRWSACNIYSTQNEVAAALAEAGVAVFAWKGESEDDFWWCIDRCVNMDGWQANMILDDGGDLTHWVYKKYPNVFKKIRGIVEESVTGVHRLYQLSKAGKLCVPAMNVNDSVTKQKFDNLYCCRESILDGLKRTTDVMFGGKQVVVCGYGEVGKGCCAALKALGAIVYITEIDPICALQACMDGFRVVKLNEVIRQVDVVITCTGNKNVVTREHLDRMKNSCIVCNMGHSNTEIDVTSLRTPELTWERVRSQVDHVIWPDGKRVVLLAEGRLLNLSCSTVPTFVLSITATTQALALIELYNAPEGRYKQDVYLLPKKMDEYVASLHLPSFDAHLTELTDDQAKYLGLNKNGPFKPNYYRY
B3: human calmodulin-like protein 5; sequence looked up; chain AGELTPEEEAQYKKAFSAVDTDGNGTINAQELGAALKATGKNLSEAQLRKLISEVDSDGDGEISFQEFLTAAKKARAGLEDLQVAFRAFDQDGDGHITVDELRRAMAGLGQPLPQEELDAMIREADVDQDGRVNYEEFARMLAQE
B4: adiponectin; sequence looked up; chain ETTTQGPGVLLPLPKGACTGWMAGIPGHPGHNGAPGRDGRDGTPGEKGEKGDPGLIGPKGDIGETGVPGAEGPRGFPGIQGRKGEPGEGAYVYRSAFSVGLETYVTIPNMPIRFTKIFYNQQNHYDGSTGKFHCNIPGLYYFAYHITVYMKDVKVSLFKKDKAMLFTYDQYQENNVDQASGSVLLHLEVGDQVWLQVYGEGERNGLYADNDNDSTFTGFLLYHDTN
Sequence of UniProt P13393 (whole entry, looked up): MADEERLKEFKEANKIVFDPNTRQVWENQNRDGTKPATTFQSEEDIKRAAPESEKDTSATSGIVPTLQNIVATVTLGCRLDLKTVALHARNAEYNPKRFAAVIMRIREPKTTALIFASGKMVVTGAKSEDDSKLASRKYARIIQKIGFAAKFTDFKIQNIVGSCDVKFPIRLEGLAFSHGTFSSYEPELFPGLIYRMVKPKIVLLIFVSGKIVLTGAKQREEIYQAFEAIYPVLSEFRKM
Sequence of UniProt Q00535 (whole entry, looked up): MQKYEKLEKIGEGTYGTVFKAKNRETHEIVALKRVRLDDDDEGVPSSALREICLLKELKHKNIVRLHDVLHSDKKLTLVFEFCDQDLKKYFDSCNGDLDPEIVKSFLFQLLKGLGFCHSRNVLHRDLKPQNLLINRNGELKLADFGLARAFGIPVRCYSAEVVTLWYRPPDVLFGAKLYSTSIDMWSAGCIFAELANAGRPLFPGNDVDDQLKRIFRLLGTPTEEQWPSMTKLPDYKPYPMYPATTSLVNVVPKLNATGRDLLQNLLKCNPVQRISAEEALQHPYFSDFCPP

The phosphorylation level of `Peginesatide` is reported as 46.1 fold (UT7/EPO; tyrosine phosphorylation, LC-MS/MS phosphoproteomics, trypsin, measured: SHIP1 tyrosine 915; 10 nM, 15 min, with: 10 U/mL EPO; baseline: vehicle).
For `MTVCNASQRQAHAQATAVSL`, the selectivity ratio was 0.43 ± 0.1 (HCC515; phage binding; peptide; baseline: targeting over control phage).
For `LLDILNLEY`, the GFP-positive cells was 0.464% (Jurkat expressing engineered TCR; NFAT-eGFP reporter, fluorescence microscopy; peptide; concentration not given, HLA-A*01:01 on EL4 cells).
Under “phosphorylation log2 fold change”, `B1 (human Nup88)` is recorded as -3.93 (U2OS; phosphoproteomics; concentration not given, with: cisplatin; baseline: untreated U2OS).
For `YLEPVYLGF`, the GFP-positive cells was 0.541% (Jurkat expressing engineered TCR; NFAT-eGFP reporter, fluorescence microscopy; peptide; concentration not given, HLA-A*01:01 on EL4 cells).
Under “log2 fold change”, `B2 (human AHCYL1)` is recorded as -0.95 (CYB5R4 knockout human cells; PP4 interaction, 3xFLAG-PP4C IP-MS; concentration not given; baseline: CYB5R4 KO over parental).
With `human ME2 T60S` the activation fold was 0.9 (enzyme activity, activator, NADH absorbance; recombinant enzyme; range over 0 to 5 mM, pH 7.4; baseline: wild type).
Under “log2 fold change”, `Talin-1 (human)` is recorded as -0.46 (CYB5R4 knockout human cells; PP4 interaction, 3xFLAG-PP4C IP-MS; concentration not given; baseline: CYB5R4 KO over parental).
`ELDIIQPDY` has a GFP-positive cells of 0.868% (Jurkat NFAT-eGFP expressing engineered TCR; NFAT reporter gene; peptide; concentration not given, HLA-A*01:01 presentation).
Under “mRNA fold induction”, `epoetin alfa` is recorded as 11.7 fold (UT7/EPO; RT-qPCR, measured: CD69; concentration not given, 90 min; baseline: vehicle).
With `YLEPVYPEY` the GFP-positive cells was 0.48% (Jurkat expressing engineered TCR; NFAT-eGFP reporter, fluorescence microscopy; peptide; concentration not given, HLA-A*01:01 on EL4 cells).
Under “log2 fold change”, `B3` is recorded as 2.49 (CYB5R4 knockout human cells; PP4 interaction, 3xFLAG-PP4C IP-MS; concentration not given; baseline: CYB5R4 KO over parental).
`CUCCCUUGG (ssRNA)` has a Kd of 3480 nM (U2AF2; sequencing of bound RNA; RNA; motif only).
For `garcinone C`, the IC50 was 22600 nM (22Rv1; cell viability; 48 h).
For `AUUUUAUUC (ssRNA)`, the Kd was 2310 nM (U2AF2; sequencing of bound RNA; RNA; motif only).
Under “log2 fold change”, `proteasome subunit alpha-1 (human)` is recorded as 0.29 (CYB5R4 knockout human cells; PP4 interaction, 3xFLAG-PP4C IP-MS; concentration not given; baseline: CYB5R4 KO over parental).
For `MSDPIQDDF`, the GFP-positive cells was 0.674% (Jurkat NFAT-eGFP expressing engineered TCR; NFAT reporter gene; peptide; concentration not given, HLA-A*01:01 presentation).
The Kd of `TCCTGAAGAGGCGCCTATAAAAGGTCCTATCGTCGTCAAGTCAATCGGTCC (dsDNA; 5'-amino-C6 primer)` is reported as 22.5 ± 17.4 nM (SPT15 full length assumed (Saccharomyces cerevisiae, UniProt P13393); array; double-stranded DNA, one strand shown; TBP alone).
`KEAFWDRCISVINLMSSKMLQINA` has an activity change of 36% (Cyclin-dependent kinase 5, with p25 (CDK5, Homo sapiens, UniProt Q00535); phosphotransferase activity, radiometric; peptide; concentration not given, 10% DMSO, with: histone substrate; baseline: p5-WT peptide).
For `B4 (adiponectin)`, the mRNA level was 0.84 ± 0.09 (HUVEC; real-time PCR, measured: VCAM-1; 15 µg/mL, 24 h, unit not given, with: TNF-α and IFN-γ; baseline: stimulated untreated).

Some of these lines once more:
For `AUUUUAUUC (ssRNA)`, the Kd was 2310 nM (U2AF2; sequencing of bound RNA; RNA; motif only).
With `YLEPVYPEY` the GFP-positive cells was 0.48% (Jurkat expressing engineered TCR; NFAT-eGFP reporter, fluorescence microscopy; peptide; concentration not given, HLA-A*01:01 on EL4 cells).
`CUCCCUUGG (ssRNA)` has a Kd of 3480 nM (U2AF2; sequencing of bound RNA; RNA; motif only).
